Results collected from several papers.
Numbered parts are unrelated; each lists some results of a single study.
Sequence of UniProt Q16512 (whole entry, looked up): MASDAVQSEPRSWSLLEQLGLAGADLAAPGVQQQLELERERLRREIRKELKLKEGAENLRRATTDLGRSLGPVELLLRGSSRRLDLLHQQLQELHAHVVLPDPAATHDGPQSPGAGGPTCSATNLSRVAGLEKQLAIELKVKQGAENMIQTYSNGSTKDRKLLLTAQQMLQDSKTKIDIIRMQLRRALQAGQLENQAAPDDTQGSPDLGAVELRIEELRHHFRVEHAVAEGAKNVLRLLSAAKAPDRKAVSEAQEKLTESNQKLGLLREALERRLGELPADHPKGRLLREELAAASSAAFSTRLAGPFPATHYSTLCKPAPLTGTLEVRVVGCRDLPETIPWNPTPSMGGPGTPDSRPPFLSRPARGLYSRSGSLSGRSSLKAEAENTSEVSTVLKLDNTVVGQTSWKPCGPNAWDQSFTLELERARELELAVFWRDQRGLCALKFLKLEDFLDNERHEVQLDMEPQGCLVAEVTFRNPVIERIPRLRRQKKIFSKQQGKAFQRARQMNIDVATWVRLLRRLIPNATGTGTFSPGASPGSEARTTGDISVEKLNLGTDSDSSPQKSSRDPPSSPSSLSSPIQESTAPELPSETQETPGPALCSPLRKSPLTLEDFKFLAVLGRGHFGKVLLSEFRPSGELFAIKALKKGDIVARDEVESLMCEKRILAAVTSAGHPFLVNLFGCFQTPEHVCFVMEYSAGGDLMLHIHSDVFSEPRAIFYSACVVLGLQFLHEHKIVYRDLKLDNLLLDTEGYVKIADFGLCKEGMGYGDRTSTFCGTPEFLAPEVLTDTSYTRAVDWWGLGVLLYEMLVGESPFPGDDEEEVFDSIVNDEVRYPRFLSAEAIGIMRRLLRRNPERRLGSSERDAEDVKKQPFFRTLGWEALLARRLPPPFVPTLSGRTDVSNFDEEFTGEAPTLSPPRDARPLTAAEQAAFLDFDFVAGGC
Sequence of UniProt Q15303 (whole entry, looked up): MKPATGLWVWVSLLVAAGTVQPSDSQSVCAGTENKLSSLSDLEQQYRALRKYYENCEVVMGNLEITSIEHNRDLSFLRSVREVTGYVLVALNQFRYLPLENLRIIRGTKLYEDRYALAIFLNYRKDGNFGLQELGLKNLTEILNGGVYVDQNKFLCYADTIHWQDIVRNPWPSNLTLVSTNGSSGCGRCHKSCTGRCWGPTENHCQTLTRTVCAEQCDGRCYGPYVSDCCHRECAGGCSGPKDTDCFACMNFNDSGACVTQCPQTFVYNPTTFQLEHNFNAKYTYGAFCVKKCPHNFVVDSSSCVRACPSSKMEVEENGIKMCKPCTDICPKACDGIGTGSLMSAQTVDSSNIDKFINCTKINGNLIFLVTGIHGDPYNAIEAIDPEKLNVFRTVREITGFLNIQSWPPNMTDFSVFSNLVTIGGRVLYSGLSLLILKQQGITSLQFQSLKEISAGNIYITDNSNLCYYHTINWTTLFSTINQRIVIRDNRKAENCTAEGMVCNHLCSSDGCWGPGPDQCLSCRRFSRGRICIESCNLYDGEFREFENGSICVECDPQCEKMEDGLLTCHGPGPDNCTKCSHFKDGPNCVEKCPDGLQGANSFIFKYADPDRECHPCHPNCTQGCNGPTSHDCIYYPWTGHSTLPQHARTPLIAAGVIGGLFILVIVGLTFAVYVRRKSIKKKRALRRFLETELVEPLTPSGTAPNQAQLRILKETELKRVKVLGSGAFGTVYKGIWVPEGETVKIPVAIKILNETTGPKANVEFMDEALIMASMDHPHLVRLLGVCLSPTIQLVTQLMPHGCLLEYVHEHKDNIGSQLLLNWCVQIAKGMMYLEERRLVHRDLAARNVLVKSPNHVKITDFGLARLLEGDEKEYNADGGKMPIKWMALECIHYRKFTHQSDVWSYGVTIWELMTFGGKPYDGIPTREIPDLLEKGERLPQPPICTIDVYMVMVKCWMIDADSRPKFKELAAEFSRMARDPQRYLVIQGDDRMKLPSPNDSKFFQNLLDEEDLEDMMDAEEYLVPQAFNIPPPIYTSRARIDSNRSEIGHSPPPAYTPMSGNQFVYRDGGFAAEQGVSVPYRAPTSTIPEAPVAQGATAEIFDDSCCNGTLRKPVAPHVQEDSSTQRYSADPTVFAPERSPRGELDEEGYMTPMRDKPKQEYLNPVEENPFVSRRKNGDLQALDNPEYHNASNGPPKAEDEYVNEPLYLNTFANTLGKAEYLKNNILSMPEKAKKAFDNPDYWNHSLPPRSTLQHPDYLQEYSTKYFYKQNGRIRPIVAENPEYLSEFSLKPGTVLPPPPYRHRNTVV
Sequence of UniProt O14976 (whole entry, looked up): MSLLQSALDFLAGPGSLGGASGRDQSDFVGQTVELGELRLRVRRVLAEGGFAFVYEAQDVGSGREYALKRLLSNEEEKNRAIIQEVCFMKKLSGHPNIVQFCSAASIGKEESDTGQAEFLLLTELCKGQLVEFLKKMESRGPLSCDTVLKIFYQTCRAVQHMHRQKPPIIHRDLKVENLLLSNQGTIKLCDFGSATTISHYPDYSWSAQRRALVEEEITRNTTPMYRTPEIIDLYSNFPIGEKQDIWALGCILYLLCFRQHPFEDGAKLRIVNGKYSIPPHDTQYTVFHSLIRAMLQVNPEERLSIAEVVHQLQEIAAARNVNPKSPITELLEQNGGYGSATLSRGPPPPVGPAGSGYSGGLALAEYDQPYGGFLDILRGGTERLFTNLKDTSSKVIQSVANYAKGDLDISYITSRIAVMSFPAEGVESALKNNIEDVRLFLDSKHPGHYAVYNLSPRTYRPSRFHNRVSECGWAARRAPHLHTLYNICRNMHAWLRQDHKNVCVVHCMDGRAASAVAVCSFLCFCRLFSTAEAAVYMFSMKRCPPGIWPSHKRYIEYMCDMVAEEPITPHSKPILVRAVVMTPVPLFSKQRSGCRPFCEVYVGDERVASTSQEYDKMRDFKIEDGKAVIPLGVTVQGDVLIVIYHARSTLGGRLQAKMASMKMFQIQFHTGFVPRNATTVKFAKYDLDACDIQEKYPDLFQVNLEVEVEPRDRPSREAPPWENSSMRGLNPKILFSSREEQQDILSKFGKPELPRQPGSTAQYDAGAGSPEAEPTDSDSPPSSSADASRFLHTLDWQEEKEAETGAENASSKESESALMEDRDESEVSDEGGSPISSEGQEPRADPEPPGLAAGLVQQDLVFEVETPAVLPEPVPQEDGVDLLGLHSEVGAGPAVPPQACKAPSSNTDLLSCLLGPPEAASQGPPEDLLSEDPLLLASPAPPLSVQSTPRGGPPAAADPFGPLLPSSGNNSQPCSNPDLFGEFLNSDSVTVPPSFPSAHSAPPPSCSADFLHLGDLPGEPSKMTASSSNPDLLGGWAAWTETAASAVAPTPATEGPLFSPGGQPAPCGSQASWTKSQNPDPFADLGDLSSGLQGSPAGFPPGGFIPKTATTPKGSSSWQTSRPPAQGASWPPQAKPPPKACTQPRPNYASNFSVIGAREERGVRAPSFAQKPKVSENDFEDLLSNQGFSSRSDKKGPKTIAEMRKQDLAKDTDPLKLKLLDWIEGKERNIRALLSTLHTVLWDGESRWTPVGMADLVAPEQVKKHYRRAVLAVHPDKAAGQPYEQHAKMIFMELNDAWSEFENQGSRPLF
Sequence of UniProt Q9UBE8 (whole entry, looked up): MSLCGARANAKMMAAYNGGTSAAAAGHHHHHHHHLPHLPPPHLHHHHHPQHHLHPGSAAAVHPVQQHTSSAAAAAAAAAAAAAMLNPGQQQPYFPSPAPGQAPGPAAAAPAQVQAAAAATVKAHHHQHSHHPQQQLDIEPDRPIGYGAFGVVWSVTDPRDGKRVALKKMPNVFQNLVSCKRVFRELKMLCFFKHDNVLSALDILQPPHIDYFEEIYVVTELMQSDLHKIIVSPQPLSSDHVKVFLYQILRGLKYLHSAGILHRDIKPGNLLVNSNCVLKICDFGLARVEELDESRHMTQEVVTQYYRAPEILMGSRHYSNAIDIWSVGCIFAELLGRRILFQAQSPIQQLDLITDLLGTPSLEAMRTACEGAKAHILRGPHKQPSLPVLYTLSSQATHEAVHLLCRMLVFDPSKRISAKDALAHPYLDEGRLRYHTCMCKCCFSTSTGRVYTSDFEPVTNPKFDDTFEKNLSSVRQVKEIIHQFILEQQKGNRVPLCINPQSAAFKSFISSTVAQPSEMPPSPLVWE

Sample 1 — species: mouse; sample: microsomes or S9; concentration: 2 µM; time: 0.5 h
Compound	remaining compound
O=C(OCCCn1ccccc1=O)c1cncc2ccccc12	0.0187%
CC1CCc2cc(F)ccc2N1S(=O)(=O)c1ccc(S(=O)(=O)NC2CCCCC2)cc1 (centres unmarked)	90.5%
COc1cc(Br)c(S(=O)(=O)NC2CCN(S(=O)(=O)c3ccccc3)CC2)cc1OC	75.9%
Cc1cc(C)n(-c2ccc(C(=O)NCc3ccc(C)o3)cn2)n1	33.3%
O=C(Nc1nc2ncc(Br)nc2s1)c1ccc(Cl)cc1	52.4%
COc1ccc(N2C(=O)/C(=C\NN(C)C)c3ccccc3C2=O)cc1	49.7%
COCc1nc(CCNS(=O)(=O)c2cccc(OC)c2)no1	0%
CC(O)c1ccc(N2CCN(CCCNC(=O)c3cc4ccccc4s3)CC2)cc1 (centres unmarked)	53.3%
Cc1ccsc1C1Nc2ccc3ncccc3c2C2=C1C(=O)CCC2 (centres unmarked)	21.8%
CC1CCNC2CN(c3nc4c(cc3F)c(=O)c(C(=O)O)cn4-c3ncc(F)cc3F)CC12 (centres unmarked)	> 100%
O=C(NC1CCN(Cc2ccc(Cl)c(Cl)c2)CC1)c1cc2ccc3ccccc3c2o1	62.7%
Cc1cc(C)n2c(CN3CCN(C)C[C@@H]3C(C)C)cnc2n1	94.9%
N#Cc1ccccc1N1CCN(C2CCC(C(=O)Nc3cccc(Cl)c3Cl)C2)CC1 (centres unmarked)	0.755%
N#Cc1ccc(OC2CCC(Nc3ncnc(N)c3Cl)CC2)nc1 (centres unmarked)	88.2%

Sample 2 — observed: cell-free assay; method: competition with immobilised ligand; concentration: 1 µM
SMILES: CN([C@@H]1CCc2c(CC(=O)O)c3cc(S(C)(=O)=O)ccc3n2C1)S(=O)(=O)c1ccc(F)cc1
target	remaining binding [%]
Platelet-derived growth factor receptor beta (PDGFRB, Homo sapiens, UniProt P09619)	86
Serine/threonine-protein kinase TNNI3K (TNNI3K, Homo sapiens, UniProt Q59H18)	100
cGMP-dependent protein kinase 2 (PRKG2, Homo sapiens, UniProt Q13237)	95
Receptor-type tyrosine-protein kinase FLT3 (FLT3, Homo sapiens, UniProt P36888, K663Q)	100
Cyclin-G-associated kinase (GAK, Homo sapiens, UniProt O14976)	93
Bone morphogenetic protein receptor type-1A (BMPR1A, Homo sapiens, UniProt P36894)	85
Tyrosine-protein kinase Tec (TEC, Homo sapiens, UniProt P42680)	100
Receptor tyrosine-protein kinase erbB-4 (ERBB4, Homo sapiens, UniProt Q15303)	100
Activin receptor type-2A (ACVR2A, Homo sapiens, UniProt P27037)	100
MAP kinase-activated protein kinase 2 (MAPKAPK2, Homo sapiens, UniProt P49137)	100
Receptor-type tyrosine-protein kinase FLT3 (FLT3, Homo sapiens, UniProt P36888)	100
STE20/SPS1-related proline-alanine-rich protein kinase (STK39, Homo sapiens, UniProt Q9UEW8)	86
Proto-oncogene tyrosine-protein kinase receptor Ret (RET, Homo sapiens, UniProt P07949, M918T)	100
Dual specificity mitogen-activated protein kinase kinase 6 (MAP2K6, Homo sapiens, UniProt P52564)	100
Receptor-type tyrosine-protein kinase FLT3 (FLT3, Homo sapiens, UniProt P36888, D835Y)	100
Discoidin domain-containing receptor 2 (DDR2, Homo sapiens, UniProt Q16832)	88
Serine/threonine-protein kinase WNK4 (WNK4, Homo sapiens, UniProt Q96J92)	100

Sample 3 — observed: enzyme activity; mode: inhibitor; concentration: 0.5 µM; reference: control
Structure (SMILES): CCCNC(=O)Nc1ccc(Oc2ncnc3cc(OC)c(OC)cc23)cc1Cl
target	remaining activity
RAC-alpha serine/threonine-protein kinase (AKT1, Homo sapiens, UniProt P31749)	93%
Insulin receptor (INSR, Homo sapiens, UniProt P06213)	92.4%
Vascular endothelial growth factor receptor 3 (FLT4, Homo sapiens, UniProt P35916)	38.5%
Serine/threonine-protein kinase 25 (STK25, Homo sapiens, UniProt O00506)	92.6%
Serine/threonine-protein kinase TAO3 (TAOK3, Homo sapiens, UniProt Q9H2K8)	95.9%
PAS domain-containing serine/threonine-protein kinase (PASK, Homo sapiens, UniProt Q96RG2)	87.7%
LIM domain kinase 1 (LIMK1, Homo sapiens, UniProt P53667)	81.6%
Megakaryocyte-associated tyrosine-protein kinase (MATK, Homo sapiens, UniProt P42679)	96.8%
Homeodomain-interacting protein kinase 1 (HIPK1, Homo sapiens, UniProt Q86Z02)	96.8%
Cyclin-dependent kinase 3, with cyclin E (CDK3, Homo sapiens, UniProt Q00526)	94%
Serine/threonine-protein kinase Nek11 (NEK11, Homo sapiens, UniProt Q8NG66)	101%
Tyrosine-protein kinase Fgr (FGR, Homo sapiens, UniProt P09769)	70.2%
Tyrosine-protein kinase Fer (FER, Homo sapiens, UniProt P16591)	74.1%
MAP/microtubule affinity-regulating kinase 3 (MARK3, Homo sapiens, UniProt P27448)	95.3%
Serine/threonine-protein kinase NLK (NLK, Homo sapiens, UniProt Q9UBE8)	90.7%
Serine/threonine-protein kinase N1 (PKN1, Homo sapiens, UniProt Q16512)	99.1%
cAMP-dependent protein kinase catalytic subunit PRKX (PRKX, Homo sapiens, UniProt P51817)	100%
Serine/threonine-protein kinase MRCK alpha (CDC42BPA, Homo sapiens, UniProt Q5VT25)	77.8%
Proto-oncogene tyrosine-protein kinase Src (SRC, Homo sapiens, UniProt P12931)	98.6%
Tyrosine-protein kinase Fyn (FYN, Homo sapiens, UniProt P06241)	92.7%
Tyrosine-protein kinase ITK/TSK (ITK, Homo sapiens, UniProt Q08881)	96.9%

Sample 4 — mode: agonist
Target: Beta-1 adrenergic receptor (ADRB1, Homo sapiens, UniProt P08588)
Sequence of UniProt P08588 (whole entry, looked up): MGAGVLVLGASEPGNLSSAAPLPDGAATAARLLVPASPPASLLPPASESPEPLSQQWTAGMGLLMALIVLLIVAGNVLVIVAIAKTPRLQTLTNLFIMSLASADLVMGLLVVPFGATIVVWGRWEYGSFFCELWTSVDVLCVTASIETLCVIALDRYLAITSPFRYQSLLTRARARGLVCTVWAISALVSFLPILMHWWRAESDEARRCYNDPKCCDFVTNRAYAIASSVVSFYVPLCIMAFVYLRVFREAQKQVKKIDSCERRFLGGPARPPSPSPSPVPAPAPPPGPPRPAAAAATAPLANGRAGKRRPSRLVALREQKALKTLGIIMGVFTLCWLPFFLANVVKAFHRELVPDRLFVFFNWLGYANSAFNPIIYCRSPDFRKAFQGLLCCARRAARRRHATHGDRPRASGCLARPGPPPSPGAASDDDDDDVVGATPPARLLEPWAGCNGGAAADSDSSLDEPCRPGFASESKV
Compound	EC50
CN(C)c1ccc2c(c1)OC(N)=C(C#N)C2c1cccc(C(F)(F)F)c1 (centres unmarked)	≥ 100 µM
COc1ccccc1N1CCN(C(C)C(=O)NC2CCC(C)CC2)CC1 (centres unmarked)	≥ 100 µM
CN1CCN(c2ccccc2CNCc2ccccc2)CC1	≥ 100 µM
Cc1nn2c(=O)cc(CSc3nnc(-c4ccccc4C)o3)nc2s1	≥ 100 µM
CN(c1cc(=O)c2ccnc(Nc3ccn(C)n3)c2o1)C1CCOCC1	≥ 100 µM
FC(F)(F)c1nnc2ccc(N3CCCN(c4cnc5ccccc5n4)CC3)nn12	≥ 100 µM
Brc1ccccc1-c1noc(-c2c[nH]nc2-c2ccccc2)n1	≥ 100 µM
Cc1cc2c(s1)c1cnn(Cc3c(F)ccc(C)c3Cl)c(=O)c1n2C	≥ 100 µM
Cn1nnnc1SCCCNCc1ccccc1OCc1ccccc1Cl	≥ 100 µM
COc1cc(O)ccc1OCCNCC(O)COc1cccc2[nH]c3ccccc3c12 (centres unmarked)	≥ 100 µM

A few entries again (sample 4):
Compound	EC50
COc1ccccc1N1CCN(C(C)C(=O)NC2CCC(C)CC2)CC1 (centres unmarked)	≥ 100 µM
CN1CCN(c2ccccc2CNCc2ccccc2)CC1	≥ 100 µM
Cc1nn2c(=O)cc(CSc3nnc(-c4ccccc4C)o3)nc2s1	≥ 100 µM
CN(c1cc(=O)c2ccnc(Nc3ccn(C)n3)c2o1)C1CCOCC1	≥ 100 µM
FC(F)(F)c1nnc2ccc(N3CCCN(c4cnc5ccccc5n4)CC3)nn12	≥ 100 µM
Brc1ccccc1-c1noc(-c2c[nH]nc2-c2ccccc2)n1	≥ 100 µM
Cc1cc2c(s1)c1cnn(Cc3c(F)ccc(C)c3Cl)c(=O)c1n2C	≥ 100 µM
Cn1nnnc1SCCCNCc1ccccc1OCc1ccccc1Cl	≥ 100 µM
